Measured values from different studies.
Lines come from different studies, so protocols differ.
JAK2: Tyrosine-protein kinase JAK2 (JAK2, Homo sapiens, UniProt O60674)
Chain of UniProt O60674 (whole entry, unmodified, looked up): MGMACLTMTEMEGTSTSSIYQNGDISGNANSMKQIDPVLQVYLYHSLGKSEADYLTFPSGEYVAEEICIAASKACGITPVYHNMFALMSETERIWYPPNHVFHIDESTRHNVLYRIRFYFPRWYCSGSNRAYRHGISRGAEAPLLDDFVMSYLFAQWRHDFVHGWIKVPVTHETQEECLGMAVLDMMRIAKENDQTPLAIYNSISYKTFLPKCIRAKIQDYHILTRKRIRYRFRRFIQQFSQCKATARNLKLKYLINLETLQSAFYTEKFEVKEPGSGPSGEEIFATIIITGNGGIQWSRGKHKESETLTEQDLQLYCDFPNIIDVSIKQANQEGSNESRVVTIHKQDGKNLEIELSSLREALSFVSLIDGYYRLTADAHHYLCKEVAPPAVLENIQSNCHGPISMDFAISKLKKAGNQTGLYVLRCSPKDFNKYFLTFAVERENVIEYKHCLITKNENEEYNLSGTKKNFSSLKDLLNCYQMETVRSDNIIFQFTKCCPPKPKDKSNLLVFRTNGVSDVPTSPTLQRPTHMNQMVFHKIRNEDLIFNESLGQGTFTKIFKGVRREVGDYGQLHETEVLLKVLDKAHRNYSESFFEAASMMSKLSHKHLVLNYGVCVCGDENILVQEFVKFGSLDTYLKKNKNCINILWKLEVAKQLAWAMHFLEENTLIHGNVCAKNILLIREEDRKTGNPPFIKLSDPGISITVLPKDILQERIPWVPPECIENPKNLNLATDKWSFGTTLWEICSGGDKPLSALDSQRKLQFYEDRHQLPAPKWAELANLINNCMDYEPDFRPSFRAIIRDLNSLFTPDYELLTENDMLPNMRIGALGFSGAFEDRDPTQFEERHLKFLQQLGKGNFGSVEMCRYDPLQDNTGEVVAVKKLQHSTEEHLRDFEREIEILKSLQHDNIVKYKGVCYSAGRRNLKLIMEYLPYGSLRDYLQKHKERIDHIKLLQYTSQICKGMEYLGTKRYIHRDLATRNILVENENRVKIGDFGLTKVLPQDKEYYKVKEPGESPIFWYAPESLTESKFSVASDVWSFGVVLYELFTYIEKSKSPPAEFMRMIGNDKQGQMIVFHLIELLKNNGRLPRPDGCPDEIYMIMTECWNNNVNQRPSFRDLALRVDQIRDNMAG
JAK2 V617F: Tyrosine-protein kinase JAK2 (JAK2, Homo sapiens, UniProt O60674, V617F)

Structure (SMILES)	target	assay	test system	conditions	how to read	measurement	value
C=CC(=O)N1CCC(C(=O)NCC(=O)N2CCN(c3nc(-c4cnc(N)nc4C(F)F)nc(N4CCOCC4)n3)CC2)CC1	JAK2	KINOMEscan	–	1 µM	–	remaining binding	88%
C=CC(=O)N1CCC(COCC(=O)N2CCN(c3nc(-c4cnc(N)nc4C(F)F)nc(N4CCOC[C@@H]4C)n3)CC2)CC1	JAK2	KINOMEscan	–	1 µM	relative to: DMSO control	remaining binding	90%
O=C1NC(=O)/C(=C/c2ccc(-c3ccc(F)cc3O)o2)S1	JAK2	enzyme activity	–	10 µM	–	remaining activity	60%
CC(=O)Nc1cc(Oc2ccc3c(nc(Nc4ccc(F)cc4F)n3C)c2C)ccn1	JAK2 V617F	kinase activity, KiNativ chemical proteomics	SET-2	5 µM, 4 h	–	inhibition	85.9%
COc1cc(N2CCN(C)CC2)ccc1Nc1nc(N)n(C(=O)NCc2ccccc2S(=O)(=O)C(C)C)n1	JAK2	enzyme activity	–	10 µM	relative to: control	remaining activity	32%
[2H]c1cc(C)c(NC(=O)c2cnc(Nc3cc(N4CCCCC4)nc(C)n3)s2)c(Cl)c1	JAK2	–	–	0.01 µM	–	inhibition	< 30%
CCCOc1ccc(OC)c(F)c1C(=O)c1ccc(C(=O)N[C@@H]2CNC[C@H]2NC(=O)c2ccc3[nH]ncc3c2)cc1	JAK2	enzyme activity	–	10 µM	–	remaining activity	88%
Cc1[nH]c(/C=C2\C(=O)Nc3ccc(F)cc32)c(C)c1C(=O)N[C@H]1CCN(C(=O)N(C)C)C1	JAK2	kinase activity, inhibitor	–	1 µM	relative to: no-compound control	remaining activity	97%
C1=C/COCc2cc(ccc2OCCN2CCCC2)Nc2nccc(n2)-c2cccc(c2)COC/1	JAK2	kinase binding panel	–	concentration not given	–	remaining binding	6.8%
O=C(NC1CCC1)c1ccc2nc(-c3cccc(NS(=O)(=O)NCCN4CCCCC4)c3)cn2c1	JAK2	enzyme activity	–	10 µM	–	remaining activity	98%
COc1cc(F)ccc1-c1ncnc(Nc2cccc(C[S@](C)(=N)=O)c2)n1	JAK2	kinase activity	–	10 µM, with: 10 µM ATP	–	remaining activity	89%
Cc1cc(Nc2cc(N3CCN(C)CC3)nc(Sc3ccc(NC(=O)C4CC4)cc3)n2)[nH]n1	JAK2	kinase activity, KinaseProfiler	–	0.03 µM, species human	relative to: control	remaining activity	109%
CCN1CCN(Cc2ccc(NC(=O)c3ccc(C)c(-c4ccc5nc(NC(=O)C6CC6)cn5c4)c3)cc2C(F)(F)F)CC1	JAK2 V617F	kinase activity, inhibitor, KiNativ profiling	SET-2	5 µM	–	inhibition	93.9%
CCN(CC)c1ccc(C2=NNC(=O)CC2C)cc1[N+](=O)[O-] (stereo not shown)	JAK2	enzyme activity, inhibitor	–	10 µM	relative to: vehicle	remaining activity	106%
COc1cc(N2CCN(C)CC2)ccc1Nc1nc(N)n(C(=S)NCc2c(Cl)cccc2Cl)n1	JAK2	enzyme activity	–	10 µM	relative to: control	remaining activity	0.4%
C[C@@H](c1ccc(-n2cnc3c(N)ncnc32)cc1)N1CCc2nn(C)c(Cc3ccccc3)c2C1=O	JAK2	KINOMEscan	–	0.1 µM	relative to: DMSO control	remaining binding	65%

Repeated from above:
Structure (SMILES)	target	assay	test system	conditions	how to read	measurement	value
C=CC(=O)N1CCC(C(=O)NCC(=O)N2CCN(c3nc(-c4cnc(N)nc4C(F)F)nc(N4CCOCC4)n3)CC2)CC1	JAK2	KINOMEscan	–	1 µM	–	remaining binding	88%
COc1cc(F)ccc1-c1ncnc(Nc2cccc(C[S@](C)(=N)=O)c2)n1	JAK2	kinase activity	–	10 µM, with: 10 µM ATP	–	remaining activity	89%
